Assay results of several laboratories.
Each numbered part is a random draw from the data of one study; scales do not carry over between parts.
Sequence of UniProt P28221 (whole entry, looked up): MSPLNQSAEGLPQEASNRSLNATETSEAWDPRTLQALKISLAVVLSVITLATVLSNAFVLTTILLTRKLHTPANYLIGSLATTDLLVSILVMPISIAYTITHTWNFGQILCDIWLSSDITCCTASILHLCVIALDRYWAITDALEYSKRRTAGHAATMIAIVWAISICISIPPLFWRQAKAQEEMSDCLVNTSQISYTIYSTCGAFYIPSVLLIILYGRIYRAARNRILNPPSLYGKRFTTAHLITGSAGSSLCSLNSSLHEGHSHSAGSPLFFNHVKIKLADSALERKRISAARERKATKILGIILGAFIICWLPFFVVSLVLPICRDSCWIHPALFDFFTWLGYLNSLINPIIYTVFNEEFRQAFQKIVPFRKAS

Series 1
Target: UBE2D4 UBC core domain (UniProt Q9Y2X8)
Sequence of UniProt Q9Y2X8 (whole entry, looked up): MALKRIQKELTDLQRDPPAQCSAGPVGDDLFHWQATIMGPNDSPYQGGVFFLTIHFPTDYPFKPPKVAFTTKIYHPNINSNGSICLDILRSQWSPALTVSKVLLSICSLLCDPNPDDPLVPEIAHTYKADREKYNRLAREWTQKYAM
Technique: yeast two-hybrid
Matrix: yeast
Notes: mostly zero background
Reference: not given
Reading: higher = stronger interaction
B1: RNF133 RING domain (UniProt Q8WVZ7); chain DEEINPNGDSCVICFERYKPNDIVRILTCKHFFHKNCIDPWILPHGTCPICKCDILKVLGIQ
B2: SYTL4 RING domain (UniProt Q96C24); chain RGSQHYSDRTCARCQESLGRLSPKTNTCRGCNHLVCRDCRIQESNGTWRCKVCAKEIELKKAT
B3: RNF121 RING domain (UniProt Q9H920); chain MPTKHLSDSVCAVCGQQIFVDVSEEGIIENTYRLSCNHVFHEFCIRGWCIVGKKQTCPYCKEKVDLKRMFS
B4: SH3RF1 RING domain (UniProt Q7Z6J0); chain DESALLDLLECPVCLERLDASAKVLPCQHTFCKRCLLGIVGSRNELRCPECRTLVGSGVEEL
B5: ZMIZ2 RING domain (UniProt Q8NF64); chain GTIPGTPGPNGEDGVEQTAIKVSLKCPITFRRIQLPARGHDCRHIQCFDLESYLQLNCERGTWRCPVCNKTALLEGLEVDQYMLGILIYIQNSDYEEITIDPTCSWK
| Molecule | lacZ reporter activity |
| --- | --- |
| KLRKLKEAMLCMVCCEEEINSTFCPCGHTVCCESCAAQLQSCPVCRSRVEHVQHVY (MYLIP RING domain (UniProt Q8WY64)) | 0 |
| B1 (RNF133 RING domain) | 18100 |
| B2 (SYTL4 RING domain) | 0 |
| B3 (RNF121 RING domain) | 0 |
| B4 (SH3RF1 RING domain) | 0 |
| B5 (ZMIZ2 RING domain) | 0 |
| GSRLQEINDVCAICYHEFTTSARITPCNHYFHALCLRKWLYIQDTCPMCHQKVYIEDDIK (RNF139 RING domain (UniProt Q8WU17)) | 0 |
| AMYLQENGIDCPKCKFSYALARGGCMHFHCTQCRHQFCSGCYNAFYAKNKC (RNF31 RING domain (UniProt Q96EP0)) | 0 |

Further values, each from its own experiment
HLA class I histocompatibility antigen, B alpha chain allele B*51:01: HLA class I histocompatibility antigen, B alpha chain, allele B*51:01 (Homo sapiens, UniProt P01889)
| Substance | target or system | test | test system | conditions | quantity | result |
| --- | --- | --- | --- | --- | --- | --- |
| FPSQQPYL | HLA class I histocompatibility antigen, B alpha chain allele B*51:01 | peptide-MHC binding | peptide | concentration not given | binding | active |
| O=C(O)c1nn(Cc2ccc(Cl)cc2Cl)c2ccccc12 | HaCaT |  |  | 100 µM, 60 h | viability | 124% |
| CNC(=N)NCCC[C@H](NC(=O)[C@H](CC(C)C)NC(=O)NNC(=O)[C@H](Cc1ccccc1)NC(=O)[C@H](CO)NC(=O)[C@H](CC(N)=O)NC(=O)[C@@H](Cc1ccncc1)NC(=O)[C@H](N)Cc1ccc(O)cc1)C(=O)N[C@@H](Cc1ccccc1)C(N)=O | HTR1D (Homo sapiens, UniProt P28221) | ligand displacement, radioligand |  | 10 µM | inhibition | 10.4% |
| CC(C)n1cnc(-c2ccc(F)cc2)c1-c1ncc(C(=O)Nc2ccc(N3CCN(C)CC3)cc2)[nH]1 |  | Phase 2a trial, refers to: influenza like illness | idiopathic pulmonary fibrosis patients | 30 mg once daily, grade 2 maximum intensity | patients with adverse events | 0% |
| Cc1ncsc1-c1ccc(CNC(=O)[C@@H]2C[C@@H](O)CN2C(=O)[C@@H](NC(=O)CCCCCNC(=O)Cc2ccccc2)C(C)(C)C)cc1 |  | exponential regression of PRP log k' | 1,9-decadiene/PBS | pH 7.4 | logD (1,9-decadiene/water) | -2.97 |
| IPCRDVVL | HLA class I histocompatibility antigen, B alpha chain allele B*51:01 | peptide-MHC binding | peptide | concentration not given | binding | inactive |
| C[C@]12CC[C@H]3[C@@H](CCC4=CC(=O)CC[C@@]43C)[C@@H]1CC[C@@H]2OC(=O)CCc1ccccc1 | A-375 |  |  | 100 µM, 60 h | viability | 5.93% |
| O=C1CCC(N2Cc3c(ccc4c3OCC43CCN(Cc4ccccc4)CC3)C2=O)C(=O)N1 (stereo not shown) |  |  | Caco-2 | 10 µM, 2 h | Papp B→A | 20.8 ×10⁻⁶ cm/s |

A few entries again (series 1):
| Molecule | lacZ reporter activity |
| --- | --- |
| B5 (ZMIZ2 RING domain) | 0 |
| KLRKLKEAMLCMVCCEEEINSTFCPCGHTVCCESCAAQLQSCPVCRSRVEHVQHVY (MYLIP RING domain (UniProt Q8WY64)) | 0 |
| GSRLQEINDVCAICYHEFTTSARITPCNHYFHALCLRKWLYIQDTCPMCHQKVYIEDDIK (RNF139 RING domain (UniProt Q8WU17)) | 0 |
